Assay results gathered from unrelated publications.
Compare with care: the assays were run in different laboratories. ± marks the error that the study gave.

Compound	test	system	conditions	quantity	result
CC(C)C[C@H](NC(=O)[C@H](CCc1ccccc1)NC(=O)CN1CCOCC1)C(=O)N[C@@H](Cc1ccccc1)C(=O)N[C@@H](CC(C)C)C(=O)[C@@]1(C)CO1		human patients, plasma	intravenous infusion 10 min, 20 mg/m^2, day 1 of cycle 1, KRd regimen	Tmax (median)	0.15 h
COc1ccc(-c2ccc3c(N4CCOC[C@@H]4C)nc(N4CCOC[C@@H]4C)nc3n2)cc1CO		human, plasma	oral, 20 mg twice daily, oral solution	Tmax at steady state	0.25 to 1 h
COc1ccc2nc([S@@+]([O-])Cc3ncc(C)c(OC)c3C)[nH]c2c1	HPLC	human CYP2C19 normal metabolizers, plasma	oral, 40 mg/day, day 5, pantoprazole	Tmax	1.86 ± 1.07 h
CC[C@H](C)[C@H](NC(=O)[C@H](CC(C)C)NC(=O)[C@H](Cc1c[nH]c2ccccc12)NC(=O)[C@H](C)NC(=O)[C@@H](NC(=O)[C@H](Cc1ccccc1)NC(=O)[C@H](CC(=O)O)NC(=O)[C@H](CCCNC(=N)N)NC(=O)[C@H](C)NC(=O)[C@H](C)NC(=O)[C@H](CC(C)C)NC(=O)[C@H](C)NC(=O)[C@H](CC(=O)O)NC(=O)[C@H](CC(C)C)NC(=O)[C@@H](NC(=O)[C@@H](NC(=O)[C@H](C)NC(=O)[C@H](CC(C)C)NC(=O)[C@H](CCC(=O)O)NC(=O)[C@H](CO)NC(=O)[C@H](CO)NC(=O)[C@H](Cc1ccccc1)NC(=O)[C@@H](NC(=O)CNC(=O)[C@H](CCC(=O)O)NC(=O)CNC(=O)[C@@H](N)Cc1cnc[nH]1)[C@@H](C)O)[C@@H](C)O)[C@@H](C)CC)[C@@H](C)CC)C(=O)N[C@@H](C)C(=O)N[C@H](C(=O)N[C@@H](CCCCN)C(=O)N[C@H](C(=O)N[C@H](C(=O)N[C@@H](CC(=O)O)C(=O)N[C@@H](CCCCN)C(=O)N[C@@H](CCCCN)C(=O)N[C@@H](CCCCN)C(=O)N[C@@H](CCCCN)C(=O)N[C@@H](CCCCN)C(=O)N[C@@H](CCCCN)C(N)=O)[C@@H](C)O)[C@@H](C)CC)[C@@H](C)O		healthy human subjects, plasma	subcutaneous, 5 mg once weekly, day 36 after 6 doses, steady state, median	tmax	0.52 h
CNC(=O)c1ccc(-c2cnc3ncc(Cc4ccc5ncccc5c4)n3n2)cc1F		human, normal hepatic function, plasma	oral, 200 mg single dose	Tmax (median)	1 h
CNCc1ccc(-c2[nH]c3cc(F)cc4c3c2CCNC4=O)cc1		human patients, plasma	oral, 840 mg twice daily, day 15, steady state, median	Tmax	4.04 h
CS(=O)(=O)Nc1ccc(C(=O)O[C@@H](Cc2c(Cl)c[n+]([O-])cc2Cl)c2ccc(OC(F)F)c(OCC3CC3)c2)cc1OCC1CC1		human, plasma	inhaled, 200 µg single dose, single-dose dry powder inhaler	tmax	1.03 h
Cc1nc(-c2ccc(OCC(C)C)c(C#N)c2)sc1C(=O)O		human, plasma	oral, day 7, median, added: verinurad	tmax	1.52 h
CC(C)(C)OC[C@@H]1C(=O)NCCN1C(=O)C[C@H](N)Cc1cc(F)c(F)cc1F		human	5 mg once daily, day 10, median	Tmax at steady state	5 h
CNC(=O)c1cccc2cc(Oc3ccnc4cc(OCC5(N)CC5)c(OC)cc34)ccc12		human patients continuous arm, plasma	oral, 10 mg, single dose cycle 1 day 1	Tmax median	1 h
Cc1ccc(NC(=O)c2ccc(CN3CCN(C)CC3)cc2)cc1Nc1nccc(-c2cncc(-c3oncc3C)c2)n1		older healthy human adults, plasma	oral, 25.0 mg single dose, fed, mean	Tmax	5.97 h
COc1ccnc(C[S+]([O-])c2nc3ccc(OC(F)F)cc3[nH]2)c1OC (stereo not shown)	HPLC	human CYP2C19 rapid metabolizers, plasma	oral, 40 mg/day, day 1, esomeprazole	Tmax	2 h
CC(C)NC[C@@H](C(=O)N1CCN(c2ncnc3c2[C@H](C)C[C@H]3O)CC1)c1ccc(Cl)cc1		human, Healthy hepatic function, plasma	oral, 100 mg single dose, NCI classification, median	Tmax	1 h

A few entries again:
Compound	test	system	conditions	quantity	result
CNCc1ccc(-c2[nH]c3cc(F)cc4c3c2CCNC4=O)cc1		human patients, plasma	oral, 840 mg twice daily, day 15, steady state, median	Tmax	4.04 h
